# Experimental data collected from several papers.
# Every numbered part comes from another study and shows a few of its results, in no order. Substitutions count along the parent as printed.

# Study 1 — method: RNA Bind-n-Seq; molecule type: RNA; sample: in vitro; concentration: not given; reference: input RNA pool; direction: higher = stronger binding
# Target: RING finger protein unkempt homolog, zinc fingers 1-6, GST-SBP tag (UNK, Homo sapiens, UniProt Q9C0B0, residues 30-357)
# Sequence of UniProt Q9C0B0 (30-357, looked up): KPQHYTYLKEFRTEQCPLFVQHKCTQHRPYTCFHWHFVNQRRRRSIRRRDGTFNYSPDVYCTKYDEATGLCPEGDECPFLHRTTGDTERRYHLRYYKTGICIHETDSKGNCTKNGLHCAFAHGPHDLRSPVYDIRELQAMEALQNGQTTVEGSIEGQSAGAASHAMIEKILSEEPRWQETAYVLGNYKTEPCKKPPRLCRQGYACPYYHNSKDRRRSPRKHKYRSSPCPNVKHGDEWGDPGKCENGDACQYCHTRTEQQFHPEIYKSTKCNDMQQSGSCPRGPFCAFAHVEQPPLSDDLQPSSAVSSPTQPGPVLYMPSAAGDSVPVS
# Notes: RNA with constant flanks, human and mouse sites, ends assumed
# All sequences stand within: GGGAGUUCUACAGUCCGACGAUC … CAACAGAGGAUUGAGCAUCA
Sequence,bound/input enrichment [ratio]
GACUCUAAGCUGACAAGACUCUUGCAGGAUUCCCUUGGGGGUAACAGCCAAACCAUCAUGAUAGCAUGCGUCAGCCCUUCAGACAGGGAUUUCAUGGAGACGUUAAACACUCUGAAGUAC,0.242
AUGGAGCCACCUGCAGCAUUGAGGAGGAGAAGGAAUCUGAAGCCAGCACCCCAACUGCUACAGAGGUGGAGGCCCUUGGGGGAGAGCUGAGGGCCCUGUGUCAGGGGCACAGCGGGCCCG,0.207
AGUAAGAAUCUACCAAUUCUCAGGCACCAAGGGCAGCAGUUGGCAAACAAGUUGCAAUGUCCUUUUGUAGAUGUACCUGCUGGUACAUAUCCUCGUAAAUUUAAUGAAACCCAAAUAAAG,0.264
UUAAGACUCACAUCAGAUUGGGCGAUGAUGCUCAAGAAACGAAAGUUUUGCUGGAAAAGCAUAGAAAAUUUGUUGAUGUUGCACAGAGCACUUAUGACUAUGGCAGGCAGUUGCUACAGG,0.438
CCAAAGAAGAUACAGUAUGAAAGUAGAGGUGCACUCUCUAUAAUACAAUCUACUGUACAGUUAGCAAGCGAAGUGUUAAAUGGAGAAGAUGCUUGUUUUUAUUAAACAUUUGGAGAUUUA,0.614
ACGGUCCCUCCCUGUCUCCUCACCCUGCUGCCAUGGGAGGCCACCGAGGCUCGUUCACCACUGUAUGUCCAGGAAAAACACCCUCCUCCCCUGCCCUAUGGCUUGCAAAGCCAUUACUGG,0.128
AUUCCCAAUGCUACACAACCAGAAAGUAAGGUGUUCUACUUGAAAAUGAAAGGAGAUUAUUUUAGGUAUCUUUCUGAAGUGGCAUCUGGAGACAACAAACAAACCACUGUGUCGAACUCC,0.285
GAGUGUGUGCUUGUGGAGUGGCGAGAUGGAUCAGAGAAGAACAAAGAGUUUCUUCCUCGAUUAGGAUCUUCUAUUGAGCACAUCUCUGUCUCACCUGCAGGAGAUUUGUUCUGUACUUCU,0.113
UACAGCUCCGGGAAUGAGCCGGCAGAAAGCAACCAGGUGACACCGAUGCUGCGGCAUCUUAUGUACAAAAUAAAGUCUACAGGUCCCAUCACUGUGGCCGAGUACAUGAAGGAGGUUUUG,0.178
GAGGAAGACAAGCCUAAGCCUGCAGACGUGCAGCCAGAGCCUGGGGUGGCUGUACUCCGAGGACAGGAGGAGGAGGCUGAGCACGCUGGGGAGACACUGGGAGAUGACCCUUCACAGCCU,0.356
GGAAGUAAUCCUACAUCAGCCUCUGAUGAUUCCAAUGGGCUGGAGUGGGAAAAUGAUUUUGUUAGUGCCGAAAUGGAUGAUAAUGGAAAUUCCGAGUAUUCUGGAUUUGUAAAUCCUGUA,0.195

# Study 2 — target: CREBZF, bZIP domain (human); method: DHFR protein complementation; sample: yeast; reference: wild-type JUN-FOS pair; direction: higher = stronger binding
# Notes: single substitutions, most at no-binding floor
# Starting sequence: JUN, bZIP domain (human); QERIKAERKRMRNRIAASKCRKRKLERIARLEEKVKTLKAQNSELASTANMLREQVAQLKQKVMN; partner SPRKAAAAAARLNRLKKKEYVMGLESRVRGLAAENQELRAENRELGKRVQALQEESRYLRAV
Substitution,binding fitness
R30F,-1.34 natural log
V56S,-1.52 natural log
A46K,-1.38 natural log
S47N,-1.32 natural log
A49T,-1.41 natural log
S43Q,-1.51 natural log
S43H,-1.52 natural log
I28H,-1.64 natural log
Q58P,-1.52 natural log
L45A,-1.26 natural log
K39M,-1.42 natural log
L52H,-1.51 natural log
A29P,-1.25 natural log
L38T,-1.45 natural log
A40C,-1.46 natural log
A46D,-1.4 natural log
K34Q,-1.43 natural log
V56Q,-1.55 natural log
N42Q,-1.42 natural log
T48V,-1.31 natural log
N42S,-1.44 natural log
E54I,-1.43 natural log
V56Y,-1.47 natural log
S43F,-1.51 natural log
S43P,-1.43 natural log

# Study 3 — target: CCNE1, cyclin fold, Cln2 fusion (human); method: yeast growth competition, sequencing; sample: yeast; notes: weak parent motif; reference: not given; direction: higher = stronger binding
# Starting sequence: WEE1 docking peptide (human); HKTFRKLRLFDTP
Substitution,normalised enrichment score
HKTFRRLRLFDTP [K6R],0.849
HKCFRKLRLFDTP [T3C],0.322
HKTSRKLRLFDTP [F4S],-0.123
HKTFRKLRLIDTP [F10I],0.709
HKTFVKLRLFDTP [R5V],-0.0791
HKTFTKLRLFDTP [R5T],0.561
HGTFRKLRLFDTP [K2G],1.05
HKTFRKLRLFDTC [P13C],0.911
HKTFRKLILFDTP [R8I],2.01
HKTFRKLDLFDTP [R8D],0.386
HKTFRKLRCFDTP [L9C],0.29
HKTFRKLRTFDTP [L9T],-0.343
HKTYRKLRLFDTP [F4Y],0.586
HWTFRKLRLFDTP [K2W],1.12
HKTERKLRLFDTP [F4E],0.0995
HKTFRKLRLFDNP [T12N],1.2
HKKFRKLRLFDTP [T3K],-0.422
HKTFRKKRLFDTP [L7K],-0.248
HKTFRKLGLFDTP [R8G],0.495
DKTFRKLRLFDTP [H1D],1.33
HATFRKLRLFDTP [K2A],0.619
HKTFRKLWLFDTP [R8W],2.1
HKTFEKLRLFDTP [R5E],0.559
HRTFRKLRLFDTP [K2R],0.982
HKTFRKLRLFWTP [D11W],1.15

# Study 4 — method: protein-binding microarray; molecule type: double-stranded DNA, one strand shown; sample: in vitro; concentration: not given; direction: higher = stronger binding
# Target: Transcriptional repressor CTCF (CTCF, Homo sapiens, UniProt P49711, residues 1-727, full length assumed)
# Notes: k-mer, scored over probes, only values ≥0.25
# Construct (chain): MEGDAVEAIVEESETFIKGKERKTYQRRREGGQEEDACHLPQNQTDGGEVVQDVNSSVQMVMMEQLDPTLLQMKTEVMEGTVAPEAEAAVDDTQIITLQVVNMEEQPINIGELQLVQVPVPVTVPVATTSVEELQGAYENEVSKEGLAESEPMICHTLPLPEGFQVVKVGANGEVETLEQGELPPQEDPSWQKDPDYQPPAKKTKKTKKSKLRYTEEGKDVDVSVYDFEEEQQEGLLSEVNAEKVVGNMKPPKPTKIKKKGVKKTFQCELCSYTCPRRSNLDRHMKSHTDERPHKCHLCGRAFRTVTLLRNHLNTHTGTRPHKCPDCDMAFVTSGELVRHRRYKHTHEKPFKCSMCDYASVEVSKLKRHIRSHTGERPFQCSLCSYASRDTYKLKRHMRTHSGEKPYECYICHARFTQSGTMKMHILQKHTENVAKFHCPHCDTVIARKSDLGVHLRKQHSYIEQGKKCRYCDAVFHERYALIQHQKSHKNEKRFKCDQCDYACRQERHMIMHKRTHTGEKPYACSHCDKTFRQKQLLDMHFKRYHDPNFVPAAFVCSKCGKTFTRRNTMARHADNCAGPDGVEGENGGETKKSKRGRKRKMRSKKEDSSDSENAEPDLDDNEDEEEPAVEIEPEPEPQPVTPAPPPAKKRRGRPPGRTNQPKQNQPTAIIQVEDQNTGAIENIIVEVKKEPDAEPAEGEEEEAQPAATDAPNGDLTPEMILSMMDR
Sequence,E-score
GTGGCCAC,0.314
ATTGCATA,0.31
CCCCACCC,0.352
CATACAAA,0.277
TAAAACTA,0.306
CCACCAGG,0.405
AAATAGAT,0.254
ATGCAATC,0.269
CATTTATC,0.28
AGGAAATA,0.308
AAAATATG,0.266
CAAAATGA,0.295
TATTTAAA,0.275
CTACAAAA,0.283
GATATGGA,0.289
TACACAAA,0.32
AATAATGT,0.35

# Study 5 — target: CEP164, C-terminal peptide (human); method: DHFR complementation, deep sequencing; sample: yeast; reference: wild type; direction: higher = weaker binding
# Notes: single substitutions, model-inferred values
# Starting sequence: PDZK1, PDZ domain 2 (human); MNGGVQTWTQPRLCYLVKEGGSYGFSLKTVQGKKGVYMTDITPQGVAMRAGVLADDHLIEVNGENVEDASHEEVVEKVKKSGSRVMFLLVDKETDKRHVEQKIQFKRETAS; partner HNRVKVYRF
Substitution,binding free energy change
D55M,0.572 kcal/mol
N65I,0.326 kcal/mol
A47D,0.286 kcal/mol
V74H,0.214 kcal/mol
R107A,-0.229 kcal/mol
Q104L,-0.121 kcal/mol
A47W,0.996 kcal/mol
G82R,0.661 kcal/mol
P43I,0.373 kcal/mol
K92N,0.134 kcal/mol
V66G,1.54 kcal/mol
G24V,1.02 kcal/mol
V61N,1.24 kcal/mol
G63D,0.382 kcal/mol
F25I,0.871 kcal/mol
Q104M,-0.0718 kcal/mol
P11F,0.314 kcal/mol
V75H,2.24 kcal/mol
Q31F,0.111 kcal/mol
E64H,0.171 kcal/mol
E67G,0.427 kcal/mol
D68M,0.0462 kcal/mol
S22D,0.725 kcal/mol

# Study 6 — method: DHFR PCA, deep sequencing; sample: yeast; with: (+)-ABA 0.0091 µM; reference: wild-type fitted maximum; direction: higher = stronger binding
# Target: ABI1, truncated, D143A, DHFR fusion (Arabidopsis thaliana)
# Notes: methotrexate growth selection, single substitutions
# Starting sequence: PYL1, truncated, DHFR fusion (Arabidopsis thaliana); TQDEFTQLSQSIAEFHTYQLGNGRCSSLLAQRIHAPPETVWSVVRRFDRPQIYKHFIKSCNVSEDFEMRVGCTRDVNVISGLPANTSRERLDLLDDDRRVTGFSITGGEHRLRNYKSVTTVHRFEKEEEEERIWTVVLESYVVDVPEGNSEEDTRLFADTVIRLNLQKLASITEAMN
Substitution,relative binding score [%]
A35Y,-3.56
S59N,13.9
E38D,25.9
H55M,18.4
H122Q,-5.16
S171L,18.6
I33V,3.49
F103R,-3.7
E14A,3.58
A30C,9.05
S117C,3.92
D97K,35.5
S87I,62.1
F15I,-1.86
C72S,21.2
K168L,-1.34

# Study 7 — method: protein binding microarray; molecule type: double-stranded DNA, one strand shown; sample: in vitro; concentration: not given; reference: not given; direction: higher = stronger binding
# Target: Histone acetyltransferase KAT6A, winged helix 2, GST fusion (KAT6A, Homo sapiens, UniProt Q92794, residues 85-181)
# Notes: 8-mer, flanks averaged, mean of 2 arrays, mostly near background
# Target sequence (chain): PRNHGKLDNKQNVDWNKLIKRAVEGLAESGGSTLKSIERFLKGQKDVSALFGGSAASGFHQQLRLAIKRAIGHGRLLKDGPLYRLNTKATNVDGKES
Sequence,E-score
CACTAACA,-0.136
AAATGCCA,0.0334
CGGTAAGC,-0.0152
GTGAGCTA,-0.0516
AACGCAGC,0.213
CAACCAAA,-0.00585
TCATGACA,0.00733
GCAGACGC,0.0917
CCAGATAA,0.00671
ACATAAAT,-0.187
TCCACAGA,-0.0977
CACTGTCA,-0.0884
CATCACCC,-0.112
CAGCCGCG,0.108
ACGTAATC,-0.265
AGTTTAGG,0.00622
GGTCGAAC,0.125
TCACACGA,-0.0393
ACCACCGT,-0.0761
GCGTACAA,-0.0101
ATACGTCC,-0.113
GAATGAAC,0.0644
ACGACCGG,-0.0815
AATAGTTC,0.00157
ATCTTATG,0.00702

# Some of these lines once more (study 5):
Substitution,binding free energy change
R107A,-0.229 kcal/mol
G82R,0.661 kcal/mol
P43I,0.373 kcal/mol
D55M,0.572 kcal/mol
Q31F,0.111 kcal/mol
S22D,0.725 kcal/mol
Q104L,-0.121 kcal/mol
P11F,0.314 kcal/mol
N65I,0.326 kcal/mol
V66G,1.54 kcal/mol
V75H,2.24 kcal/mol
V61N,1.24 kcal/mol
F25I,0.871 kcal/mol
Q104M,-0.0718 kcal/mol
A47D,0.286 kcal/mol
D68M,0.0462 kcal/mol
V74H,0.214 kcal/mol
